Published values pooled from the literature.
Every numbered part comes from another study and shows a few of its results, in no order.

Sample 1 — technique: RNA Bind-n-Seq; form: RNA; matrix: in vitro; tested at: not given; notes: RNA with constant flanks, ends assumed; relative to: input RNA pool; direction: higher = stronger binding; endpoint: bound/input enrichment
Target: RING finger protein unkempt homolog, zinc fingers 1-6, GST-SBP tag (UNK, Homo sapiens, UniProt Q9C0B0, residues 30-357)
All sequences stand within: GGGAGUUCUACAGUCCGACGAUC … CAACAGAGGAUUGAGCAUCA
Construct (chain): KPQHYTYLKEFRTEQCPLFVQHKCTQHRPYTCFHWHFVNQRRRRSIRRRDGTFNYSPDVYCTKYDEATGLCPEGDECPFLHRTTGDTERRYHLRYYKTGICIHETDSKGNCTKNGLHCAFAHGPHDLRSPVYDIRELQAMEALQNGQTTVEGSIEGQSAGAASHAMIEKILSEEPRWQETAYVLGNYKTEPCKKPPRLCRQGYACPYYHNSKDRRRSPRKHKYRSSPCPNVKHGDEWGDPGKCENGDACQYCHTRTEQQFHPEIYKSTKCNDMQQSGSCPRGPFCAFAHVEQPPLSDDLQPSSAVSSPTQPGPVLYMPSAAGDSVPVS
Strand = UUUCCGUCUUUUGGAAGUGGAUUUUCUUCUUUUGAUACAGGAUUUACUUCAUUUGGGUCACCCGGUCACGGGGGCCUCACUUCAUUCUCUUCCACGUCAUUUGGUGGUAGUGGCAUGGGC; result = 0.199 ratio
Strand = GAAAACAUAUUCAGUCGUAUAGUAGAUAUACAUGAACUUAGUGUAAAGUUACUGGGCCAUACCGAAGAUACUGUAGAAAUGACAGAUGAAGGCAGUCCCCACCCAUUAGUAGGAAGCUGU; result = 2.14 ratio
Strand = AGGGAGCUUCCAGGAAGACUUGCCUCAAACAACUGAGCCAAAGACAGACUGGUUAGAACGCCGUCAUAUGCUUUUGUGUGCAAAUAAUAUUUUCAAAGAACUAAUAAUAAUUUGAUUGAG; result = 1.06 ratio
Strand = CCCGCCCGCCCGCCUCCCUGCCGGCCCAUCCACACCCUGCGUCCACACCACUUCCAACCUCACCGGAGCCGAUGUAUUUAUUUUCCUUGAGUUUUUAUUUAUGCUGUAACCUGUAUCAAG; result = 0.535 ratio
Strand = GAGAUGAAGAAGAAGAUUAACAUGGAGUUGAAGAACAGAGCCCCGGAGGAGGUGACAGAGUCCGUCCUCGAUAAUUGCUUGUGUGUCAAUGGGGAAAUCGAAGGCCUGAAUGACACCUUU; result = 0.193 ratio
Strand = AAGCCUUUCUCUCUCACUUCCCGAGGUGCCUUGUUUCAGGAGAUCUCCAGCAAUGACAUCCGUUCCAAACUCACUCUUCUUACACUUCACUUCCCCAGACUACGGAUUCUCUGGUGCCCC; result = 0.451 ratio
Strand = GUUUUUUGUUGUUGUUGUUGUUGUUUUUUUUUUUUGAGGUGGGGAAUUUCUGUUUAUUUCAUUUUGCCGAGCUGGACAAUUGAGUCCAGGGCCUCUCAAAUGCUAGGCAAAACUCUGUCA; result = 0.777 ratio
Strand = UUUAUGACAUGUCCCUUUAUAUUGAAUGCUGUCACAAAGAAUUUGGGAUUAUAUUAUGACAACCGAAUUCGCAUGUACAGUGAACGAAGAAUCACUGUUCUCUACAGCUUAGUUCAAGGA; result = 0.155 ratio
Strand = AUAUUGGAGAAUUGGGAGAAGUCUCUUUGGUUUGGAAAAAAAAAAAAGGAAUCUUCAGCCCCGAUCACUUUCUUAUCCGGACUGGGAUAUUAAAUAUACGACACAUCCAGGAGUUUAUUG; result = 0.352 ratio
Strand = AUCCCCAACGUGCUGCGCCGCACUCGCGAGCGCAUCCUGCGCGUGGCGCCGCCGUUUGCCGUGGUCUACCUGAUCUACACAUGGGGCAACCAGGAGUUUGAGCAGUCGAAAAGGAAGAAU; result = 0.111 ratio
Strand = ACAGACAUCCGCUGCCCCUUUGAAAAACGAAGAGAUGCAGCAUGCGUGUUUUGGGACAAUGCCGUAUACAUUUUGGGAGGCUCUCAGCUUUUCCCAAUAAAGCGAAUGGACUGCUAUAAU; result = 0.0854 ratio

Sample 2 — technique: protein binding microarray; form: double-stranded DNA, one strand shown; matrix: in vitro; tested at: not given; relative to: not given; direction: higher = stronger binding; endpoint: E-score
Target: Histone acetyltransferase KAT6A, winged helix 1, GST fusion (KAT6A, Homo sapiens, UniProt Q92794, residues 1-85)
Notes: 8-mer, flanks averaged, mean of 2 arrays, mostly near background
Residues (chain): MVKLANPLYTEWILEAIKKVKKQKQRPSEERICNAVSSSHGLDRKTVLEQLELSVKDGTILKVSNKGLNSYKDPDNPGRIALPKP
Strand = CCCGTCGG; result = 0.486
Strand = ATCAATGA; result = -0.0574
Strand = AAGTATAC; result = -0.0659
Strand = GCGACCCC; result = 0.186
Strand = CGCGAAAG; result = 0.236
Strand = CGCCCTTC; result = 0.135
Strand = CCAATGCG; result = 0.161
Strand = GAGATCTC; result = 0.0993
Strand = CACCGCTG; result = 0.149
Strand = ATGCAGAC; result = -0.206
Strand = ATGTTTGG; result = -0.0417
Strand = CAATAGAG; result = -0.184
Strand = AGAAATTC; result = -0.107
Strand = CTACTGAC; result = -0.0395
Strand = CTGTGCAC; result = 0.101
Strand = AGAGCCCG; result = 0.113
Strand = CACGTGTC; result = -0.202
Strand = GCTCAGCC; result = 0.0777
Strand = GAAGCTAA; result = -0.117
Strand = ACAAACGG; result = 0.0913

Sample 3 — technique: RNA Bind-n-Seq; form: RNA; matrix: in vitro; tested at: 365 nM; relative to: no-protein control; direction: higher = stronger binding; endpoint: RBNS enrichment (R)
Target: RNA binding protein fox-1 homolog 2, RRM domain, GST-SBP tag (RBFOX2, Homo sapiens, UniProt O43251-10, residues 100-194)
Notes: natural RNA segment, single round, ends assumed
All sequences stand within: GGGAGUUCUACAGUCCGACGAUC … UGGAAUUCUCGGGUGCCAA
Construct (chain): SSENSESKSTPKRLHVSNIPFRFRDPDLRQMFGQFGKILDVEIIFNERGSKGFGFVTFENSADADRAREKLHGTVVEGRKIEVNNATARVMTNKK
Strand = GUUUCAUAAGCCUGUCUAGGUGUGGCAGGUUUUGUGUGGUACACUGAUGUUUACCAUAAGCAGGUACAAGCUUCAUGAACCGUUCUUAAUGAACUAUAAUUGAAUAGAUA; result = 0.434
Strand = GUUCUUUUAUAUGCUGUGUCCUUUUGGGGUUUGACCUUACCAAAGCAAAGAAACAAAAAACAAAAAAAACAAAAAAAAAAAAGGGUGCAAGAAAUGUGGAAAUCUGUCUG; result = 1.04
Strand = UCUUGCCCUGUAACCCAUAUCUACUGUUCUGGCGACAAAAGACAGAUGUUAAGUGUAACAGAUAAUUGGAGCUACGAGCCAUUCAGCUUCAGCCUUUCCAGACCACACAC; result = 0.371
Strand = GACUUGAUGUUUUGGGAUUGUCCUUAUUUUAACCUCAAGGUCUCGCAUGGUGGGGCCCCUGACCAACCUACACAAGUUCCCUCCCACAAGUGGACAUCAGUGUCUUCUCU; result = 0.723
Strand = ACAAGUUAGUUUGCUUUAAGCAGGUAACUUUUUUUGUAAUGGAAGAAAUGCACUACAAAGUUAAGACAGAUUUUUGCUAAGUGCAGGAGGCCCUUUAUUAUUGCUGCAGA; result = 0.342
Strand = UAGGGUAUAUGAAUAUUUUGCAAUAAUUUUAAUAAUUAUUAAGCUGUUUGAAGGAAAGAAUAUGGAUUUUUCAUGUCUUGAGGUUUUGUUCAUGCCCCCUUUGACUGAUC; result = 0.651
Strand = CAUUAUGAUUCAUAACAGUGACAAUCACAGUUAUGAGGUAGAAAGGAAAGGGAUUUUAUGGUUGGGGGUUAGUCCAACAAGAGGGACAGUGUUAAUGCUUCUGAAGCAUC; result = 0.483
Strand = UCAGGAAGCCUAAUCCAGGUGGUAACCACAGAAGGAAGGACGGAACUCACCCCAGCAUAUUUUUAGGCCUCAUCUCAGUGCCUAUGAGGGGCCUGCCAGAAAAGUCACUA; result = 0.948
Strand = GAUACUGGACUUUCUGACGCAGAUGAACAAUUAAGGGGAAAAGCUUCCCUUUUCCCUCUGUGGCAGUUACGAUUUUGACUUCAGUCCUGAGAAAAACUUCAGGUUUUGAA; result = 0.324
Strand = UGGAAAAAGGACACAGAAUGGGGCUUGUGGGAAAGACCGGGACAAUAAAGCCCACCAUGUAAACCAAAUGACUGUUAGUCUCUGAGAGCCUUCAUGCGCCACCACUCAAG; result = 0.613
Strand = AUAUUUGGAAGGCUUCCAUUUCCAUUGAAAACAAAUCCAUGAGUGAGAGGGAAAGUCUAGUAUCAAUUCUUCUGUUUGCUCGCAAUGACACAAAUAGGUUUUGGGGAUCU; result = 0.397
Strand = CUGCAUUAUGUGUACAGUAUUGGACAAAGGAUUUUAUUCAUUUUGUUGCAUUAUUUUGAAUAUUGUCUUUUCAUUUUAAUAAAGUUAUAAUACUUAUUUAUGAUACCAUU; result = 1.12

Sample 4 — technique: RNA Bind-n-Seq; form: RNA; matrix: in vitro; tested at: 20 nM; notes: 6-mer, flanks averaged, single round; added: 150 mM LiCl; relative to: input library; direction: higher = stronger binding; endpoint: 6-mer enrichment (R)
Target: TAR DNA-binding protein 43, full length, His tag (TARDBP, Homo sapiens, UniProt Q13148, residues 1-414)
Strand = CGGGGC; result = 1.1
Strand = CGUGAU; result = 0.915
Strand = UCUCGG; result = 0.894
Strand = AAAAUU; result = 0.941
Strand = UACAUC; result = 0.827
Strand = UAUGGA; result = 1.05
Strand = AACAGA; result = 0.796
Strand = GGGUGG; result = 1.62
Strand = UGGAUU; result = 0.946
Strand = UGCCGC; result = 0.981
Strand = UCUGGC; result = 0.899
Strand = GCCCAU; result = 0.994
Strand = GAUACC; result = 0.878
Strand = GCGUGC; result = 1.13
Strand = CGCAUG; result = 0.991
Strand = GCGUUA; result = 1
Strand = GACGUG; result = 1.08
Strand = AAAGAU; result = 0.803
Strand = UCCAGC; result = 0.924
Strand = GCGGCA; result = 1.02
Strand = GGAGAA; result = 1.05
Strand = CACAUG; result = 0.891

For quick reference, copied from above (sample 4):
Strand = GGGUGG; result = 1.62
Strand = UCUCGG; result = 0.894
Strand = GCCCAU; result = 0.994
